Experimental data gathered from unrelated publications.
Every numbered part comes from another study and shows a few of its results, in no order.

Sample 1
Target: Histone acetyltransferase KAT6A, winged helix 2, GST fusion (KAT6A, Homo sapiens, UniProt Q92794, residues 85-181)
Technique: protein binding microarray
Form: double-stranded DNA, one strand shown
Sample: in vitro
Concentration: not given
Setting: 8-mer, flanks averaged, mean of 2 arrays, mostly near background
Relative to: not given
Direction: higher = stronger binding
Measurement: E-score
Residues (chain): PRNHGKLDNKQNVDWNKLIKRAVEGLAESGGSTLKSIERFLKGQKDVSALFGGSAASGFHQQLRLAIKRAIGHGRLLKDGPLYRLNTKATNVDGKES
GCCATAGA: -0.103
AAGCAAGG: 0.109
CACAGACC: 0.209
CAAGTGCA: -0.0454
ACTCGATC: -0.0255
CCAATCGA: -0.0918
ACAACCAC: -0.0408
AGTCACGA: -0.104
ATCGGGCG: 0.113
ATCCGGTA: -0.021

Sample 2
Target: Ras GTPase-activating protein-binding protein 1, full length (G3BP1, Homo sapiens, UniProt Q13283)
Sequence of UniProt Q13283 (whole entry, looked up): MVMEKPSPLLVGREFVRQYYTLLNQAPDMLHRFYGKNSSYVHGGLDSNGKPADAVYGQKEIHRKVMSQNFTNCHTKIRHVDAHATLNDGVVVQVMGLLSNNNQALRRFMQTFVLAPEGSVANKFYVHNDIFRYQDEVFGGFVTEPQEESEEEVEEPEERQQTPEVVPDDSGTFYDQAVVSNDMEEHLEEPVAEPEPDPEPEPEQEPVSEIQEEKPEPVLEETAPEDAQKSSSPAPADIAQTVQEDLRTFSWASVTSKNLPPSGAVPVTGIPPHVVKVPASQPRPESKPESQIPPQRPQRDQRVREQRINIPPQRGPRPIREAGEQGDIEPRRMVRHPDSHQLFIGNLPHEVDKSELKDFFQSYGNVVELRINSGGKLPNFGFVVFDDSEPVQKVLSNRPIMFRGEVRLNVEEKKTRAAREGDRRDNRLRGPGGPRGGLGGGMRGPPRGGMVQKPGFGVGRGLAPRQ
Technique: RNA Bind-n-Seq
Form: RNA
Sample: in vitro
Concentration: 200 nM
Setting: whole 134-nt RNA, ends assumed
Together with: 150 mM KCl
Relative to: input library
Direction: higher = stronger binding
Measurement: log2 enrichment
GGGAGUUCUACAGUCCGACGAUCUCACUUUAGAGGAGGAUCUGAUGGAUAUGGCAGUGGACGUGGAUUUGGGGAUGGCUAUAAUGGGUAUGGAGGAGGACCUGGAGGUGGCAAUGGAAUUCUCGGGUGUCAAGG: 0.321
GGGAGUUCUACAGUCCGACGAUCCACAGACAACACGCACCCACACAGACACAGAGGGAAGGGGUUGGGAUGGGGCCAGGGUGCACAGCAGGGCGGGGUAGGACCCCAGCCCCUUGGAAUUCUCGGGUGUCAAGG: 1.84
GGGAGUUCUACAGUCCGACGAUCUCCUGUGCUACACAUCGUAUGUACCGAAUCGGGUUUUUUUGGGAAAAAAAGGGUUUGGGAAAGUAUUAUGUUACGCCGUUCGGAUCUGCAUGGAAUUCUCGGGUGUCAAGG: -0.593
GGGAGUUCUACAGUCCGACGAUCCCUGUGCUACACAUCGUAUGUACCGAAUCGGUUUUUUUGGGUUUUUUUGGUUUUUUUGGGAAAGUAUUAUGUUACGCCGUUCGGAUCUGCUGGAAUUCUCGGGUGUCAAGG: -1.04
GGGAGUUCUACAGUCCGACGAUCCUCAAGUCCUGUGCUACACAUCGUAUGUACCGAAUCGGGAAGGGAAGGGAAGGGAAAGUAUUAUGUUACGCCGUUCGGAUCUGCACUUCCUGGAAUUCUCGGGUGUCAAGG: 1.44
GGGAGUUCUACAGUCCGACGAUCCCUCAAGUCCUGUGCUACACAUCGUAUGUACCGAAUCGGCCGGGGCCGGCCGGAAAGUAUUAUGUUACGCCGUUCGGAUCUGCACUUCCAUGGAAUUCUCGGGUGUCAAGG: -0.447
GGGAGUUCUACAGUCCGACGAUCUCCUGUGCUACACAUCGUAUGUACCGAAUCGGGGAAAAAAAGGGGUUUGGGGUUUGGGGAAAGUAUUAUGUUACGCCGUUCGGAUCUGCAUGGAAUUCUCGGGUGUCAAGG: 0.834
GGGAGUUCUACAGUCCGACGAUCUGGGAGGUGGAUUUUGUUUAUUUUGUUAGCUCAUUUCCAGGGGUGGGAAUUUUUUUUUAAUAUGUGUCAUGAAUAAAGUUGUUUUUGAAAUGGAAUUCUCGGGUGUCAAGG: 0.149
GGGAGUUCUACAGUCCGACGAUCUCAAGUCCUGUGCUACACAUCGUAUGUACCGAAUCGGAGGUUUUUGGUUUUUGGAAAGUAUUAUGUUACGCCGUUCGGAUCUGCACUUCCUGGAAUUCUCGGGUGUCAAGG: -1.08
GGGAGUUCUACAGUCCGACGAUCGCAGGAAGUAAAAACAAAUGGAAAUGCUUCGGAUAGUGGCAGGGGUGGGGGUGGCUAAGGAAAGGGUGGGAUGGGAGUGGGUAAAGAGUUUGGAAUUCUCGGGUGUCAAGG: 0.719
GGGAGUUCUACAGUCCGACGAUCCACAGACAACACGCACCCACACAGACACAGAGGGAAGGGGUUGGGAUGGGGACAAGGUGCACAGCAGGGCGGGGUAGGACCCCAGCCCCUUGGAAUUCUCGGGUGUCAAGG: 1.82

Sample 3
Target: Interferon regulatory factor 3, full length, phosphomimetic (IRF3, Homo sapiens, UniProt Q14653, residues 1-427, S386D/S396D/S398D/S402D/T404D/S405D)
Sequence of UniProt Q14653 (whole entry, unmodified, looked up): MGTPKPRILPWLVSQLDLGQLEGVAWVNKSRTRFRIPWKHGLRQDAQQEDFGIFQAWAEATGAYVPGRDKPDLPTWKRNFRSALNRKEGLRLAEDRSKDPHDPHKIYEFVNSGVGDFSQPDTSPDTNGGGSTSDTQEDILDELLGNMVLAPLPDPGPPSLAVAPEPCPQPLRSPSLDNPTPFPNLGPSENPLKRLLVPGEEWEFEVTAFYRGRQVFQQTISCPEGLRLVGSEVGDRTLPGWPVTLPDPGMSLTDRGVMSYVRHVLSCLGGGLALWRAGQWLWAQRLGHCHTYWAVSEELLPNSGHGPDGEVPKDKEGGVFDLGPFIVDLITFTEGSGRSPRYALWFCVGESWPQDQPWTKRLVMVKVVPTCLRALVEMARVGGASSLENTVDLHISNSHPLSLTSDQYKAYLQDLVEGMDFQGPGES
Technique: protein-binding microarray
Form: double-stranded DNA, one strand shown
Sample: in vitro
Concentration: 2540 nM top
Setting: 60-bp whole probe
Together with: salmon DNA 0.4 mg/ml
Relative to: random background probes
Direction: higher = stronger binding
Measurement: fitted relative affinity
Shared flanks, not repeated: GCCTAGCAC … GTCTTGATTCGCTTGACGCTGCTG
TTCGGTTTCGGTATCGGTTAGTGCTAG: 8.7 z-score
GACGGAATGGACACTGGGGACGTGCTA: 0.0618 z-score
GACGGACTGGACAATGGGGACGTGCTA: -0.636 z-score
TTAGGTATCGACTATCGGTTCGTGCTA: 0.722 z-score
TTAGAAGTGGGGACTGGATTAGTGCTA: -0.695 z-score
TTAGGTGTCGACTTTCGGTTAGTGCTA: 2.24 z-score
GACGGTCTCGGTCTCGGGAAGTGCTAG: 1.41 z-score
GATGGTTTCCTTCTCCTGACGTGCTAG: 10.1 z-score
TTAGGACTGGTTTTCGGTTAGTGCTAG: 1.65 z-score
TTAGGTATCCTTTTCCTTAAGTGCTAG: 8.98 z-score

Single results of other studies
PhoQ, residues 284 288 289 292 302 303 SASVAL  fold induction (PhoP, residues 12 14 15 18 19 QWHVF (Escherichia coli, UniProt P23836); Sort-seq, item: YFP reporter; E. coli; PhoQ-PhoP variant library, together with: 10 µM Mg2+; relative to: high Mg2+ state, higher = stronger signaling): 4.38

Excerpt of the above (sample 3):
TTAGGTATCCTTTTCCTTAAGTGCTAG: 8.98 z-score
TTAGGTATCGACTATCGGTTCGTGCTA: 0.722 z-score
